Published values of several laboratories.
Each numbered part is a random draw from the data of one study; scales do not carry over between parts.

Block 1
Target: Sal-like protein 4, full length isoform A (SALL4, Homo sapiens, UniProt Q9UJQ4, residues 1-1053)
Chain of UniProt Q9UJQ4 (whole entry, looked up): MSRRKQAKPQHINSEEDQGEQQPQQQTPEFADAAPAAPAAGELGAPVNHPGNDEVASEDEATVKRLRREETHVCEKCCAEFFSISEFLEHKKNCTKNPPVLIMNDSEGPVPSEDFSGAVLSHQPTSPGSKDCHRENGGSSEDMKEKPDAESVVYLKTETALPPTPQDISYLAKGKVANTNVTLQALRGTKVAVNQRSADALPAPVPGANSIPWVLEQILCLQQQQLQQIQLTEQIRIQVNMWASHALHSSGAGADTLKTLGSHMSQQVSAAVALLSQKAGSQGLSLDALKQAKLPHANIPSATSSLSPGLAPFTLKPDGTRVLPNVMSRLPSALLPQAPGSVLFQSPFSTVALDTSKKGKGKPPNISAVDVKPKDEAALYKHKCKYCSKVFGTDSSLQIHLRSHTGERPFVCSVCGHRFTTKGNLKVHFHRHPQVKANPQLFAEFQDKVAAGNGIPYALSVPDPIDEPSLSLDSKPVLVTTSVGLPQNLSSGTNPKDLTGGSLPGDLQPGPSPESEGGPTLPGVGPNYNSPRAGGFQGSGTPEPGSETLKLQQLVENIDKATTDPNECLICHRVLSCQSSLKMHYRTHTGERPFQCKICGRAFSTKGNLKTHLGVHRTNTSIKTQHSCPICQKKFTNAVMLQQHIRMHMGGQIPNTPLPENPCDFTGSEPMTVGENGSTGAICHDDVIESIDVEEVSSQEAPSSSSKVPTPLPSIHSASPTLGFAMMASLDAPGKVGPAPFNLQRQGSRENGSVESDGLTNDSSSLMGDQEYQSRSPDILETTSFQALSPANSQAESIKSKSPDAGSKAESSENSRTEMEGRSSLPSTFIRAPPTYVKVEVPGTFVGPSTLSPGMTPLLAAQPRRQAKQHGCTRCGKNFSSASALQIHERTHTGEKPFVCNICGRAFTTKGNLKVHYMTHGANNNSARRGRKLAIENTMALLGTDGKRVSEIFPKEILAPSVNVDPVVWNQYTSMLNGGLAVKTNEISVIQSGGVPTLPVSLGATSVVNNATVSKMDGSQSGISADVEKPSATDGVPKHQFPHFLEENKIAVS
Technique: universal PBM
Form: double-stranded DNA, one strand shown
Medium: in vitro
Concentration: 600 nM
Setting: 8-mer, flanks averaged, mean of replicates
Direction: higher = stronger binding
| Strand | E-score |
| --- | --- |
| AGAAACGG | -0.101 |
| CACTATAA | 0.242 |
| CACATCAA | 0.0803 |
| CACCGAAG | -0.0626 |
| CTACCCCA | -0.0717 |
| AACCGTAG | -0.132 |
| GTCTGTTA | 0.158 |
| ACTGGCAT | -0.118 |
| AAGCGTCA | 0.0102 |
| ACCTTAAC | 0.0836 |
| CAACTCAG | -0.0743 |
| GCTAATCC | -0.0551 |
| ACTTACGC | 0.107 |
| GGCAATAC | 0.0456 |
| GGGAAGCA | -0.0823 |
| AACGTGAC | -0.0665 |
| GGCTCGTA | -0.0233 |
| CAGCACAA | -0.0144 |
| GATGGCCC | -0.325 |
| AACAAATA | 0.338 |
| ATGCAAGG | -0.105 |

Block 2
Target: Prothrombin, mature alpha-thrombin (F2, Homo sapiens, UniProt P00734)
Technique: aptamer microarray, sandwich
Form: DNA with 2'F-ANA
Medium: in vitro
Concentration: 200 nM
Setting: whole 15-mer aptamer, many near background
Added: Cy3 exosite-II aptamer, 400 nM
Direction: higher = stronger binding
Strand: GGTTGGTGTGGTTGG
| Modification | mean fluorescence intensity [a.u.] |
| --- | --- |
| 2'F-ANA at 2 5 8 9 11 12 13 14 | 46.5 |
| 2'F-ANA at 1 2 4 7 8 10 13 14 15 | 77.8 |
| 2'F-ANA at 1 2 3 5 6 7 8 9 10 11 13 14 15 | 55.2 |
| 2'F-ANA at 1 3 4 7 8 12 | 443 |
| 2'F-ANA at 1 4 6 7 9 10 11 15 | 52.7 |
| 2'F-ANA at 1 3 6 9 11 15 | 209 |
| 2'F-ANA at 1 3 4 7 9 10 12 14 15 | 57.8 |
| 2'F-ANA at 1 3 5 6 10 11 14 15 | 59 |
| 2'F-ANA at 2 5 6 11 | 143 |
| 2'F-ANA at 1 3 6 7 9 10 11 12 13 14 15 | 108 |
| 2'F-ANA at 2 3 4 5 6 7 8 15 | 110 |
| 2'F-ANA at 2 3 6 7 9 13 14 | 304 |
| 2'F-ANA at 5 6 9 11 14 15 | 48.5 |
| 2'F-ANA at 1 2 5 6 9 12 | 114 |
| 2'F-ANA at 4 5 6 7 10 14 | 43.8 |
| 2'F-ANA at 3 9 10 13 15 | 489 |
| 2'F-ANA at 1 5 7 8 9 10 11 14 | 47.9 |
| 2'F-ANA at 3 4 6 7 8 9 10 11 13 14 | 174 |
| 2'F-ANA at 4 5 6 7 9 11 12 13 15 | 68.7 |
| 2'F-ANA at 3 5 12 13 15 | 200 |
| 2'F-ANA at 2 7 8 9 11 14 | 159 |
| 2'F-ANA at 3 6 11 12 14 15 | 487 |
| 2'F-ANA at 8 10 11 12 13 15 | 175 |

Block 3
Target: Interferon regulatory factor 7, full length, phosphomimetic (IRF7, Homo sapiens, UniProt Q92985, residues 1-503, S471D/S472D/S475D/S476D/S477D/S483D/S484D/S487D)
Chain of UniProt Q92985 (whole entry, unmodified, looked up): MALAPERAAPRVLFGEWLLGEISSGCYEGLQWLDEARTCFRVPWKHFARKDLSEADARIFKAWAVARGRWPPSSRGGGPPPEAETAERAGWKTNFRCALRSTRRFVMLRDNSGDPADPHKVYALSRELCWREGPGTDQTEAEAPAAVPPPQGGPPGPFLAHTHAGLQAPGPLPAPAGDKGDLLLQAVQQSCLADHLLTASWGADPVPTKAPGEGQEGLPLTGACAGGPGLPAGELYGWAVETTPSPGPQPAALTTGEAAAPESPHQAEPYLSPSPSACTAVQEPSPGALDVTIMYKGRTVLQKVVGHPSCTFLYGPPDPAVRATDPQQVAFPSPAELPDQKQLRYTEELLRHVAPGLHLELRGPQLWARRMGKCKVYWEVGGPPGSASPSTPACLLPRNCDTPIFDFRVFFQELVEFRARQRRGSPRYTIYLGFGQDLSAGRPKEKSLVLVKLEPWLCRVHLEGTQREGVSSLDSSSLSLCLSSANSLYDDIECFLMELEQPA
Technique: protein-binding microarray
Form: double-stranded DNA, one strand shown
Medium: in vitro
Concentration: 2200 nM top
Setting: 60-bp whole probe
Added: salmon DNA 0.4 mg/ml
Baseline: random background probes
Direction: higher = stronger binding
All sequences stand within: GCCTAGCAC … GTCTTGATTCGCTTGACGCTGCTG
| Strand | fitted relative affinity [z-score] |
| --- | --- |
| TTAGGTCTCGGACCGGGTTAGTGCTAG | -0.467 |
| TCATTTACCCATCTCCAACTGTGCTAG | 2.48 |
| TGAGGTCTCGGACTGGGTTAGTGCTAG | -0.638 |
| TCATATATATTTATGTAACTGTGCTAG | 0.868 |
| TCAAGTTTCCCTCCCTGACTGTGCTAG | 2.18 |
| GACCGTATCCTACTGCTGACGTGCTAG | 1.12 |
| GACGGTTTCGCGTATCGGGACGTGCTA | 3.03 |
| TAAGGTTTCGACTTTCGGTTAGTGCTA | 10.7 |
| GAGGGTATCGGGTATCGGGACGTGCTA | -0.442 |
| TTAGGTATCGGTCTCGGATAGTGCTAG | 0.885 |
| GCTGACACTAACACAGTGGTGTGCTAG | -0.266 |
| GACGGTCTCGGTTGCGGGACGTGCTAG | 0.0979 |
| GACGGTATCGGGTTCCGGGACGTGCTA | 0.543 |
| TCAACACTCTTCTTTTGCACTGTGCTA | 1.29 |
| GTATTTTTCTAAACCATTTTGTGCTAG | 1.22 |
| TTAGATTGCGGGACTGGATTAGTGCTA | -0.444 |
| CTCCCCCTCAGATCTGCCGTCGTGCTA | -0.0143 |
| TTTTTTTTTTTTTTGGAATGGTGCTAG | 1.97 |
| AACGATATCAGTTTCGAGACGTGCTAG | 3.61 |
| GACGGTTTCGACACGGGGGACGTGCTA | 3.62 |
| AACGGTATCGGTATCGGGACGTGCTAG | 0.566 |
| TCATGTCTTCCCCTCTCACTGTGCTAG | 1.94 |
| TTAGGTCTCGGTCTCGCTTAGTGCTAG | 0.562 |
| GACGGAATGCTTCTCCTGACGTGCTAG | 0.72 |
| TTAGGTATCGGGTATGGGTTAGTGCTA | 0.272 |

Block 4
Target: RNA binding protein fox-1 homolog 2, RRM domain, GST-SBP tag (RBFOX2, Homo sapiens, UniProt O43251-10, residues 100-194)
Technique: RNA Bind-n-Seq
Form: RNA
Medium: in vitro
Concentration: 365 nM
Setting: natural RNA segment, single round, ends assumed
Baseline: no-protein control
Direction: higher = stronger binding
Residues (chain): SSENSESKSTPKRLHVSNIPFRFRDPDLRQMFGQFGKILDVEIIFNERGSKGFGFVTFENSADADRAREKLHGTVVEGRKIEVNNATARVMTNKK
| Strand | RBNS enrichment (R) |
| --- | --- |
| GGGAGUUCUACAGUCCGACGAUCCUGUGUAGAUGAUUAACUGACUUUUUAAUAUUUUGUAAAUAAAUCGGAUUCCUUGUGUCCUUUGUGCUAGUGUAACCCGGGACUGGAAUGUAAAGUGAAGUUCGGAGCUCUGGAAUUCUCGGGUGCCAA | 1.22 |
| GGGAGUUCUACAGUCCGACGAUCCUUUCUAGUUUGGCAGUGCGACUGAGAGAAGAUUCCACACAGGAACAUCUUUCUUCUCCAUCACUCCACGCCUCCAUCCAAGCUCAGUUUCCACUCGCCCACCAGAAGCAUGGAAUUCUCGGGUGCCAA | 1.22 |
| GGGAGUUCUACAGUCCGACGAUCAAAUCAUGUUUAAAAUGAUAAAACUCCAUCUUAUAUAUAGACUUUUGUAUAGCUUCAAGAACUUUAUACCUGUACAGCUCUAACAUGACACUGCUCCACUCAGUAUUCAUUGGAAUUCUCGGGUGCCAA | 1.09 |
| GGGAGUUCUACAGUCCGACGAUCGCCACUGUCUCCUCUCCAUCCCGCCCAGCCAUGUGACACUGGCUCCCGGUAGACGGGCACCCCGAGAUGUACCAACCUUUUCAUGUAUUCUGCCAAAAGCAUUGUUUUCCUGGAAUUCUCGGGUGCCAA | 0.335 |
| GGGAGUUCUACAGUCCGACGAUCCUCCAAGGCUCUGCACCAUGCCACACACUUGCUGUAAGGCUAGAAGUGAAGACCUUAUUAAUAGGAGCAUAAUUGCGAGGGAGAAUCAUGGUUCUGCAGUCUGGUGUAGAUGGAAUUCUCGGGUGCCAA | 0.269 |
| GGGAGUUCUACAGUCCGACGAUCUGGCAUUGAUGCUAAUAAAUCCUUUGCACAAAAAUUUGAAUAAACUUCCAGUGGUUUCGAUAACGUACAAGAUUGUAUAUUUCCCUCAUUUAUUGUAAUUCAAUAUCUUAUGGAAUUCUCGGGUGCCAA | 0.461 |
| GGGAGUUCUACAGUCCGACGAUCGACAGUCUUGCAUUUUGUUUUGUCUCGUGAUGGUGGUGGUGGUAGGGGUACGCUUAGGUGGGCAGUCCUGUGGGGAAAACAUCUUGUCUCCAUCUUGCUAGGAAGAACCAUGGAAUUCUCGGGUGCCAA | 6.94 |
| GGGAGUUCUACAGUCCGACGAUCGCAAGUUGUGAGGAAAGGUCCUCAGAACAUGGGAUUCCACAUGAGGAAUCCUUAGGCUGCCAGGAAGCCAGAGGGGUUUAGAGGUGCUCAGCUUUGAGCCCCAGUAUGCAUGGAAUUCUCGGGUGCCAA | 3.68 |
| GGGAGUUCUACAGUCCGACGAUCAAAAUAUUUAAUUACCGGUUGUUAAAACUGGUUUAGCACAAUUUAUAUUUUCCCUCUCUUGCCUUUCUUAUUUGCAAUAAAAGGUAUUGAGCCAUUUUUUAAAUGACAUUUGGAAUUCUCGGGUGCCAA | 0.845 |
| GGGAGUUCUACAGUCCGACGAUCAGGACAGGCAAGAGCCUCACAAGUGGGACUCUGGGCCUCUGACCAGCUGUGCGGCAUGGGCUAAGUCACUCUGCCCUUCGGAGCCUCUGGAAGCUUAGGGCACAUUGGUUUGGAAUUCUCGGGUGCCAA | 0.748 |
| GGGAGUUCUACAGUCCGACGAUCUACUAAAAAACUACUCGAGUAAAUAUCCUAACAAGUAUGAUUUUUCUUGGGAAAACUAAAAAUUGUACAUCCAUGCUUCAGCCAUAUCAUGGGCCUAAACUAUGAGAGUUUGGAAUUCUCGGGUGCCAA | 0.372 |
| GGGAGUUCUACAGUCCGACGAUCUUGUGUGGUCACCAAGAGGACUGAGGACACAGUAGCCCUGAGCCAAGUUGGGCUCAUCUUCCAGGGAGCAAACCUAAAGCUGGCAGUCAGCCGCCCUGGCUAGAGGCCUGUGGAAUUCUCGGGUGCCAA | 0.377 |

For quick reference, copied from above (block 2):
| Modification | mean fluorescence intensity [a.u.] |
| --- | --- |
| 2'F-ANA at 2 3 6 7 9 13 14 | 304 |
| 2'F-ANA at 5 6 9 11 14 15 | 48.5 |
| 2'F-ANA at 1 2 5 6 9 12 | 114 |
| 2'F-ANA at 4 5 6 7 10 14 | 43.8 |
